Experimental data gathered from unrelated publications.
Each numbered part is a random draw from the data of one study; scales do not carry over between parts.

Set 1 — cell line: HEK-293T/ACE2; effect on: pseudovirus infection; organism: VSV pseudotyped with SARS-CoV-2 spike; concentration: concentration not given; reference: vehicle-treated; endpoint: GFP-positive cells
SMILES = COc1cc2nccc(Oc3ccc(NC(=O)C4(C(=O)Nc5ccc(F)cc5)CC4)cc3)c2cc1OC.O=C(O)C[C@H](O)C(=O)O; value = 75.2%
SMILES = CCCCCCCCc1ccc(CCC(N)(CO)CO)cc1.Cl; value = 38.4%
SMILES = NCCC(O)(P(=O)([O-])O)P(=O)([O-])O.[Na+].[Na+]; value = 84.3%
SMILES = CCN[C@@H]1C[C@H](N)[C@@H](O[C@H]2OC(CN)=CC[C@H]2N)[C@H](O)[C@H]1O[C@H]1OC[C@](C)(O)[C@H](NC)[C@H]1O.CCN[C@@H]1C[C@H](N)[C@@H](O[C@H]2OC(CN)=CC[C@H]2N)[C@H](O)[C@H]1O[C@H]1OC[C@](C)(O)[C@H](NC)[C@H]1O.O=S(=O)(O)O.O=S(=O)(O)O.O=S(=O)(O)O.O=S(=O)(O)O.O=S(=O)(O)O; value = 82.9%

Set 2 — method: RNA Bind-n-Seq; molecule type: RNA; matrix: in vitro; concentration: 365 nM; reference: no-protein control; reading: higher = stronger binding; endpoint: RBNS enrichment (R)
Target: RNA binding protein fox-1 homolog 2, RRM domain, GST-SBP tag (RBFOX2, Homo sapiens, UniProt O43251-10, residues 100-194)
Notes: natural RNA segment, single round, ends assumed
Shared flanks, not repeated: GGGAGUUCUACAGUCCGACGAUC … UGGAAUUCUCGGGUGCCAA
Residues (chain): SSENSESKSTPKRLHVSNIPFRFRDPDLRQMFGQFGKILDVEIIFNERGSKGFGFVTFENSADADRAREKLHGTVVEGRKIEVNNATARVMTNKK
Oligonucleotide = CGCGCCACUUUGCAUUCCCACGGGACUCAUGUACCUCCCGCAGAGCCGUCCCCGUCAAGGUGUGGGGCUCCUUUCAUGCAUUUGCUUCUUUUCCAGAGUGUGGAUUUGAA; value = 0.977
Oligonucleotide = UUAGUCAUGAUAAAAAUGAAGCUGUAAUAUCAAGGUCAUACAAGUAUAAACAUAUAUGUCCAAUUUUUAAACUACUUCCACCUUACAAGUUGUUCAAAAUACAUUAUUAG; value = 0.617
Oligonucleotide = AAAUCUUAUAAAACCCUUGAAAAUAAACAGUCUCUUUUUUACAAAGCCUGUGUUAGAGCACAGAUUUACCUAGGCUUGAAGAUUUGGAAGAAAUAAUAUGUAAGAAUGGC; value = 0.604
Oligonucleotide = UUGUUUUCUUUGGCCCAAGGGUAAACUAAAAUACCUGUGAACUGCAAACUUGCUUGUGAUUGACUUGGUGCAAUACAGUUCCUUUCUAAACGUUUCUGGUUUAGAGAAUA; value = 6.24
Oligonucleotide = GAUUUUCUCCCUUUUGUUUUGCUUUUAUUUUCAUGCUACUAACAUAUCUUCAGAAGGAAAUGGCAACUAGUAGAUCAGUAAAAUUACGAAAACGAUGCCUGCAAAAUUUG; value = 0.53
Oligonucleotide = AAAGCCACUCUACUAUGAAUGUUAUUGGGGCUACACUUGCCUUUCUUGCCCAAGGGCCUCCUGCAUAGACCUUGUCGGUCAAAUCUUGAGUCCUUGUACAGAAAUGAUAG; value = 0.364
Oligonucleotide = CCCAGACGAAUCUUUAUAAUUUCUUUCCAAAGAUACCAAAUAAACUUCAGUGUUUUCAUCUAAUUCUCUUAAAGUUGAUAUCUUAAUAUUUUGUGUUGAUCAUUAUUUCC; value = 0.902
Oligonucleotide = UUUAACGUAGCUCGAAUCUGGUACACGCAUAAAGUUUUACGGUCAAGUCCUUUUCUUUCUUCUUGAGAGACCUAAAGAGAUACUGUAGCUUGUUUUUCUGAUGGCAAAUG; value = 0.355

Set 3 — method: competition protein-binding microarray; molecule type: double-stranded DNA, one strand shown; matrix: in vitro; concentration: 2 µM; together with: Pho4 competitor, 0.05 µM; reading: higher = stronger binding; endpoint: fluorescence intensity; shared flanks, not repeated: … GTCTTGATTCGCTTGACGCTGCTG
Target: Centromere-binding protein 1, full length, His-tagged (CBF1, Saccharomyces cerevisiae, UniProt P17106, residues 1-351)
UniProt P17106, sequence (whole entry, looked up): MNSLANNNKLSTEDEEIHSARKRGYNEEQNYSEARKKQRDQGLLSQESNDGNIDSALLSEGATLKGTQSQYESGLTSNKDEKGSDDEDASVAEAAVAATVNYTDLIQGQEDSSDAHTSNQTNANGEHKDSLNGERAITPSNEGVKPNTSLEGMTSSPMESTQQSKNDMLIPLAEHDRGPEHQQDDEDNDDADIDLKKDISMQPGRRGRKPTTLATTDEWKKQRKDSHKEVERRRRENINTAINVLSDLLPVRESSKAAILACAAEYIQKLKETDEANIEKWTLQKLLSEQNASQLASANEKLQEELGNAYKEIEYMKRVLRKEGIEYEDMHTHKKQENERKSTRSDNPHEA
Notes: whole 60-bp probe, lowest competitor level
Oligonucleotide = CGGGGTTAAGTTTGTCCGGTGGGTGGCTTGCAGCAG; value = 73.2 a.u.
Oligonucleotide = ACACAGAGCGGCTGAAGCGTGATGGATGCCCAGGTA; value = 87.8 a.u.
Oligonucleotide = CCGCTAATAACCGTCCCCGTGACGGAGTACCTATCG; value = 768 a.u.
Oligonucleotide = AAAGCGGTAATTTGATCTGTGGGTGCAGATATCTAT; value = 74.3 a.u.
Oligonucleotide = CCGCGGAATAGCGTTCCCGTGGGTAGAAAAGCAGCA; value = 99.6 a.u.
Oligonucleotide = CTTCTGTAAATTTGAGTCGTGGGTGGACGCGCCCCG; value = 82.8 a.u.
Oligonucleotide = CTACCACCACCAACACACGTTACACCACAACAACAG; value = 116 a.u.
Oligonucleotide = CTAACGAAGGTTTGCGGAGTGGGTGACAAGCCAAGT; value = 67.8 a.u.

Set 4 — SMILES: C=CC(=O)c1ccc2ccccc2c1; effect on: enzyme activity; action: inhibitor; endpoint: inhibition
rep main protease: Replicase polyprotein 1ab, main protease (rep, Severe acute respiratory syndrome coronavirus 2, UniProt P0DTD1)
target = rep main protease; concentration = 20 µM; notes = hit confirmation; value = 92.3%
target = Replicase polyprotein 1ab, 3C-like proteinase (rep, Middle East respiratory syndrome-related coronavirus, UniProt K9N7C7); concentration = 10 µM; value = 26%
target = rep main protease; concentration = 20 µM; value = -11.8%

Set 5 — action: inhibitor; concentration: 20 µM; endpoint: inhibition
Target: Replicase polyprotein 1ab, nsp13 helicase (rep, Severe acute respiratory syndrome coronavirus 2, UniProt P0DTD1)
Structure (SMILES) = CCCCN(CCCC)CCCOC(=O)c1ccc(N)cc1; value = 2.78%
Structure (SMILES) = C[C@@H](C1=C(CCN(C)C)Cc2ccccc21)c1ccccn1; value = 2.1%
Structure (SMILES) = C[C@H](CS)C(=O)N1CCC[C@H]1C(=O)O; value = 5.68%
Structure (SMILES) = CCOC(=O)CC(=O)N1CCSC1COc1ccccc1OC (centres unmarked); value = -4.67%
Structure (SMILES) = Cc1cc(-c2ncc(CC(=O)Nc3ccc(-c4cnccn4)cn3)cc2C)ccn1; value = 6.26%
Structure (SMILES) = OC[C@H]1O[C@@H](n2cnc3c(NC4CCCC4)nc(Cl)nc32)[C@H](O)[C@@H]1O; value = 2.14%
Structure (SMILES) = Cc1cccc(NC(=O)CN2CCC(c3ccccn3)CC2)c1; value = 7.92%
Structure (SMILES) = CC(C)N(CCC(C(N)=O)(c1ccccc1)c1ccccn1)C(C)C (centres unmarked); value = 0.2%
Structure (SMILES) = CN(C)C(=O)n1nnnc1Cc1ccc(-c2ccccc2)cc1; value = 5.02%
Structure (SMILES) = CCCC(O)C(CC)CO (centres unmarked); value = -0.52%
Structure (SMILES) = Clc1cccc(C(c2ccc3[nH]cnc3c2)n2ccnc2)c1 (centres unmarked); value = 2.55%
Structure (SMILES) = c1ccc(CN(CC2=NCCN2)c2ccccc2)cc1; value = 0.52%
Structure (SMILES) = C=CC1=C(C(=O)O)N2C(=O)[C@@H](NC(=O)/C(=N\OCC(=O)O)c3csc(N)n3)[C@H]2SC1; value = 2.51%
Structure (SMILES) = O=c1[nH]c2ccccc2n1C1CCN(CCCC(c2ccc(F)cc2)c2ccc(F)cc2)CC1; value = -1.06%
Structure (SMILES) = CC(=C(CCOC(=O)C(C)C)SSC(CCOC(=O)C(C)C)=C(C)N(C=O)Cc1cnc(C)nc1N)N(C=O)Cc1cnc(C)nc1N (stereo in doubt); value = 4.18%
Structure (SMILES) = C[C@]12C=CC(=O)C=C1CC[C@H]1[C@@H]3C[C@@H](O)[C@](O)(C(=O)CO)[C@@]3(C)C[C@H](O)[C@@]12F; value = 4.71%
Structure (SMILES) = CC1=C(/C=C/C(C)=C/C=C/C(C)=C/C(=O)O)C(C)(C)CCC1; value = 22.7%
Structure (SMILES) = O=C(O)c1ccc(NC2O[C@H](CO)[C@@H](O)[C@H](O)[C@@H]2O)cc1 (stereo in doubt); value = -5.15%
Structure (SMILES) = N=C(N)SCCc1c[nH]cn1; value = 8.41%
Structure (SMILES) = FC(F)(F)Oc1ccc2nc(-c3ccc(OCCOCCOc4ccc(-c5nc6ccc(OC(F)(F)F)cc6[nH]5)nc4)cn3)[nH]c2c1; value = -1.54%
Structure (SMILES) = O=C(CCCCC(=O)Nc1c(I)cc(I)c(C(=O)O)c1I)Nc1c(I)cc(I)c(C(=O)O)c1I; value = -2.46%
Structure (SMILES) = CC1(C)S[C@@H]2[C@H](NC(=O)C(C(=O)O)c3ccccc3)C(=O)N2[C@H]1C(=O)O (some centres unmarked); value = 1.94%
Structure (SMILES) = CN/C(=N\c1ccc(C2=NNC(=O)CC2C)cc1)NC#N (centres unmarked); value = 7.61%
Structure (SMILES) = CS[C@H]1SC[C@H]2C(=O)N(C)[C@@H](C(C)C)C(=O)OC[C@@H](NC(=O)c3cnc4ccccc4n3)C(=O)N[C@@H](C)C(=O)N(C)[C@@H]1C(=O)N(C)[C@@H](C(C)C)C(=O)OC[C@@H](NC(=O)c1cnc3ccccc3n1)C(=O)N[C@@H](C)C(=O)N2C; value = 41.8%
Structure (SMILES) = CCOc1ccccc1C(=O)O; value = 5.77%

Set 6 — method: RNA Bind-n-Seq; molecule type: RNA; matrix: in vitro; concentration: not given; reference: input RNA pool; reading: higher = stronger binding; endpoint: bound/input enrichment
Target: RING finger protein unkempt homolog, zinc fingers 1-6, GST-SBP tag (UNK, Homo sapiens, UniProt Q9C0B0, residues 30-357)
UniProt Q9C0B0, sequence (30-357, looked up): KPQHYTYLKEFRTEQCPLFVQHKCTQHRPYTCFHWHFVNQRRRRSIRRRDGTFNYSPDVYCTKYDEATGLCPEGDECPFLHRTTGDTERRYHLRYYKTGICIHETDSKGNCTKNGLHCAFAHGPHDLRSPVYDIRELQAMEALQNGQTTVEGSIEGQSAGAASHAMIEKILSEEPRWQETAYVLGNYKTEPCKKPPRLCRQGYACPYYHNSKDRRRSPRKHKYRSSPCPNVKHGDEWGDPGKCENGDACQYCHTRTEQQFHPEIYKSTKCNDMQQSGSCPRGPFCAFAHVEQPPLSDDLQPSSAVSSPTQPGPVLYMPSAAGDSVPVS
Notes: RNA with constant flanks, human and mouse sites, ends assumed
Shared flanks, not repeated: GGGAGUUCUACAGUCCGACGAUC … CAACAGAGGAUUGAGCAUCA
Oligonucleotide = GAGCACAGCUCUACUCUGGUUACACGGAUCACCUUUGUUGUGCUAGAAUGGAAGCUACAUUUCUGGAAUGUGUGUACCCUGCUGGUGACUUUGCAGCCCCGCCUUGCCUGACCUCCCACC; value = 0.15 ratio
Oligonucleotide = GACGACUAUGAAGCUGCUUCUGAUUUUUAUAGGAAGGGAGUUGAUUUACUCCUAGAAGGUGUUCAAGGAGAGUCAAGCCCUACCCGUCGAGAAGCUGUGAAGAGAAGAACAGCCGAGUAC; value = 0.16 ratio
Oligonucleotide = GUCACUGGGCUUCUCAAGGAGCUGCAUACCCGCCUAGACAGGAGAUCUCGGCUAGUGGUUCUCUCUGCCCUGGGGGUGCCUGGCACAGGGAAAUCUACACUCCUUAACACCAUGUUUGGC; value = 0.193 ratio
Oligonucleotide = UGUAUUCGAUAGAUCUCUACAACUAUGCCCCUUAUCGUAGGGAAUACUCAUAACUUUGUGUUAGCACGAUGGAGGAUACAAUGCUUUGCAGCAUAAGAGAGAAAAUAGUUCUACUAGCCA; value = 0.564 ratio
Oligonucleotide = GUCUAAUAAAAAGACAAGCGGUGGGACAGAGGGAACCUACAACCAAAAACUGCCUAGAUCUUUGCAGUUAUGUGCUUUAUGCCACGAAGAACUGAAGUAUGUGGUAAUUUUUAUAGAAUC; value = 0.409 ratio
Oligonucleotide = CAUUUUGUGUUUGUGUGAACACGCAGCGCUCAGUGGUGCAUGCCAUUUCCGUGUGGGUUGCUGUUUCUGCUCCUCACUGGUCUUACGUGUUUCCCUUUCCUUCGUUUGGUUGGUUGGUGG; value = 0.115 ratio
Oligonucleotide = AACAAUAGUGGAAUGAAAUCACACAAGUGCAGGAAGUCUGGAAAAUUCUUCACGAUGACCUCAAGCCUGAGUGGGCAUCCGAGAGAUCAUGCUAGAGAGAAGCCCUAUCAAUGUACAAAG; value = 0.154 ratio
Oligonucleotide = UGGCGUCUGAUUUGUAUGUCACAUUUGUGUAAAAUGGUAUGUUCUUUAAAAUGGUGUUGAUAACUGGAAUAUUGUAUGUAUGCUUGAAGAUGCUUUGUGCGAACCUAAGACUCACUCAGC; value = 0.367 ratio
